Measured values of several laboratories.
Every numbered part comes from another study and shows a few of its results, in no order. Positions count from the first letter of the parent shown.

Series 1
Target: Sal-like protein 4, full length isoform A (SALL4, Homo sapiens, UniProt Q9UJQ4, residues 1-1053)
UniProt Q9UJQ4, sequence (whole entry, looked up): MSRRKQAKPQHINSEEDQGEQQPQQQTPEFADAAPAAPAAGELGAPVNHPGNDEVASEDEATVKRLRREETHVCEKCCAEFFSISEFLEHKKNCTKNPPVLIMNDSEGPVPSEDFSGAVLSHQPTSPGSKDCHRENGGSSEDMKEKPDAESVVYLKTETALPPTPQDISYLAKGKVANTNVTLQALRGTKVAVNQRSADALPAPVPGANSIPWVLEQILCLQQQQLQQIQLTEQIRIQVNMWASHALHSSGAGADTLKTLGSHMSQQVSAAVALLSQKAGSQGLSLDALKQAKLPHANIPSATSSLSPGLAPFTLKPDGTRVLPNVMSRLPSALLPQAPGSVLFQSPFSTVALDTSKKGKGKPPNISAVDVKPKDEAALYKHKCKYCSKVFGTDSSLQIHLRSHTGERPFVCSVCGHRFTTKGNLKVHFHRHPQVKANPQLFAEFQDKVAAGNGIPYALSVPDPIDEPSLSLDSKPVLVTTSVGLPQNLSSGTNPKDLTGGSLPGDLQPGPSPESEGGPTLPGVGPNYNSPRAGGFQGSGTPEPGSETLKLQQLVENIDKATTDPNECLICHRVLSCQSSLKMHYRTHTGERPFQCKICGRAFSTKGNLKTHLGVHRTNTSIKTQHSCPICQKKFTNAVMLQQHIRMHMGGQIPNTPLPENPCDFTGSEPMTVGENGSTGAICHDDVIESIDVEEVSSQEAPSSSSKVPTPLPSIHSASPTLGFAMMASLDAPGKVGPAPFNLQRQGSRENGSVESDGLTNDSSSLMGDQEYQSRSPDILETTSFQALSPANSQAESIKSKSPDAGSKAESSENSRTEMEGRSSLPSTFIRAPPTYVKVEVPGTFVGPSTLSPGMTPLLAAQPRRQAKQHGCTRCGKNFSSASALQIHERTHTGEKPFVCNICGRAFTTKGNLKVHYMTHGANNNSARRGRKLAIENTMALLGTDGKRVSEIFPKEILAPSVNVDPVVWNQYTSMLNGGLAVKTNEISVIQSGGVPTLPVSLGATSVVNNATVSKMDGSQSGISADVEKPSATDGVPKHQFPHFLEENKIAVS
Technique: universal PBM
Form: double-stranded DNA, one strand shown
Matrix: in vitro
Tested at: 600 nM
Setting: 8-mer, flanks averaged, mean of replicates
Direction: higher = stronger binding
| Oligonucleotide | E-score |
| --- | --- |
| CGTTTGAG | -0.00176 |
| CCTAAGAA | 0.106 |
| ATTGATGG | 0.242 |
| CGGTAAGA | -0.0847 |
| AGAAGCGG | -0.243 |
| ATAGACTA | 0.222 |
| AAATCCCC | -0.182 |
| CCGGATAG | -0.0378 |
| CATGAGCA | -0.106 |
| ATTCGCCA | 0.0494 |
| AACGTAAA | 0.255 |
| CAAATTCC | 0.224 |
| AGAGTTAC | 0.0354 |
| CTAGCGAC | -0.0563 |
| ACCCGTTC | -0.1 |
| ATGTAACG | 0.231 |
| CCCCCGAA | -0.147 |
| GATCAGGA | -0.136 |
| ACGTTTCA | 0.0297 |
| AACTTTAG | 0.159 |
| CCCTACTA | -0.127 |
| CCCCGTAA | -0.058 |
| GCACCGGA | -0.282 |
| AGTGTAAG | 0.14 |
| CGCTCCGA | -0.15 |

Series 2
Target: Histone acetyltransferase KAT6A, winged helix 2, GST fusion (KAT6A, Homo sapiens, UniProt Q92794, residues 85-181)
Technique: protein binding microarray
Form: double-stranded DNA, one strand shown
Matrix: in vitro
Tested at: not given
Setting: 8-mer, flanks averaged, mean of 2 arrays, mostly near background
Reference: not given
Direction: higher = stronger binding
Residues (chain): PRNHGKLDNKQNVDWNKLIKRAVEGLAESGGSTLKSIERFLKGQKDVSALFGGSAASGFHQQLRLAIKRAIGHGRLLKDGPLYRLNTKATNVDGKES
| Oligonucleotide | E-score |
| --- | --- |
| GAGGCACA | 0.0561 |
| CACCGACG | 0.138 |
| ATAGTACA | -0.0803 |
| ATCATCAT | -0.0763 |
| AGATGTAA | 0.0209 |
| CGCGTACG | 0.0444 |
| CAATCCTA | -0.0955 |
| CGTCGCTA | 0.0833 |
| TATTAGGA | -0.103 |
| GGGCTCGA | 0.0166 |
| CCCAGGCG | 0.232 |
| AGGCGACC | 0.0611 |
| ATTCAAAG | -0.00138 |
| CATTGAGC | 0.0124 |
| GCCCCACA | 0.0966 |
| GAGCTGAA | -0.0101 |
| ACGGGCGG | -0.00979 |
| CCCTAAGA | -0.00769 |
| TCGCTAGA | 0.0618 |
| GATCGACA | -0.0194 |
| GGATAGAC | -0.0713 |
| ATCATCTA | -0.154 |
| ACGAGGCC | -0.061 |
| AGCGCCAC | 0.0749 |
| AGCATTGG | -0.0719 |

Series 3
Target: Transcription factor Sp1 (SP1, Homo sapiens, UniProt P08047, residues 1-785, full length assumed)
UniProt P08047, sequence (whole entry, looked up): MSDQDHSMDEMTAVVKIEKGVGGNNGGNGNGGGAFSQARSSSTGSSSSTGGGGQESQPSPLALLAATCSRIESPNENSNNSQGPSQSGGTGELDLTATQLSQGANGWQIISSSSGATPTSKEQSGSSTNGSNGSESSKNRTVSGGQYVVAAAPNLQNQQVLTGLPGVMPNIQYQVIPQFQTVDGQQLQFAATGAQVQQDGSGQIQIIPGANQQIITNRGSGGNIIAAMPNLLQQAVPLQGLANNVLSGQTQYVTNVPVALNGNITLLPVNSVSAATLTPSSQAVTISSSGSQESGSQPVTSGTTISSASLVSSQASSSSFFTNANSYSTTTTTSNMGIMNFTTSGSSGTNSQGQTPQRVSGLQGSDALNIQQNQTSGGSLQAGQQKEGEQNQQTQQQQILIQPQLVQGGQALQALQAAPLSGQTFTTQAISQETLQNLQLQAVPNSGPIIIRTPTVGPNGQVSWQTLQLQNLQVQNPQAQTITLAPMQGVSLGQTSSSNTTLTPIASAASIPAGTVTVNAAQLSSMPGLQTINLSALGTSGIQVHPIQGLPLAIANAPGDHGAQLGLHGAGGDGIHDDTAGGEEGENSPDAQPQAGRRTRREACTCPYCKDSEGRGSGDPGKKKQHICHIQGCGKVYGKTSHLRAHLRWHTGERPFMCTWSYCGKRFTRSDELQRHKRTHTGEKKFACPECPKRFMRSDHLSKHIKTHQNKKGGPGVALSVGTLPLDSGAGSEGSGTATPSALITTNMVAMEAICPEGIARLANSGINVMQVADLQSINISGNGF
Technique: protein-binding microarray
Form: double-stranded DNA, one strand shown
Matrix: in vitro
Tested at: not given
Setting: k-mer, scored over probes, only values ≥0.25
Direction: higher = stronger binding
| Oligonucleotide | E-score |
| --- | --- |
| CCACCCTA | 0.388 |
| CCCCTTAC | 0.29 |
| ATAATTAT | 0.289 |
| CCTCCCCC | 0.363 |
| GGGCAGGA | 0.271 |
| TGATGGAA | 0.259 |
| ATCCCCTA | 0.27 |
| AAAGGGGG | 0.314 |
| CGGGGTAG | 0.311 |
| GACCCACC | 0.323 |
| GATAACCA | 0.252 |
| AGTATCTA | 0.311 |
| AATGGGGT | 0.265 |
| ATATCATA | 0.264 |
| CCCCTACC | 0.368 |
| CCCCTCGC | 0.266 |
| TGGGGTAA | 0.361 |
| AGGCGGGG | 0.482 |
| GGGTGGAC | 0.255 |
| CACCCCAA | 0.291 |

Series 4
Target: TAR DNA-binding protein 43, full length, His tag (TARDBP, Homo sapiens, UniProt Q13148, residues 1-414)
Technique: RNA Bind-n-Seq
Form: RNA
Matrix: in vitro
Tested at: 20 nM
Setting: 6-mer, flanks averaged, single round
Added: 150 mM LiCl
Reference: input library
Direction: higher = stronger binding
| Oligonucleotide | 6-mer enrichment (R) |
| --- | --- |
| UAUCCA | 0.864 |
| AAAAUG | 0.937 |
| AGGACG | 0.976 |
| GUCUUU | 1.09 |
| CUGAGU | 0.963 |
| AGACCA | 0.812 |
| UUAGUC | 0.928 |
| CCGAAC | 0.827 |
| GCCCUC | 1.05 |
| GCAGGU | 1.04 |
| GGUAGC | 1.03 |
| CAUCGA | 0.786 |
| CCACAU | 0.93 |
| UAGUCC | 0.894 |
| CGUUGA | 0.919 |
| GCUUUA | 0.98 |
| CCCUUG | 1.23 |
| UCAGUC | 0.846 |
| AGCGCC | 0.939 |
| CUCCCC | 1.27 |
| GAGCUC | 0.942 |
| GUUCUA | 0.895 |

Series 5
Target: RNA binding protein fox-1 homolog 2, RRM domain, GST-SBP tag (RBFOX2, Homo sapiens, UniProt O43251-10, residues 100-194)
Technique: RNA Bind-n-Seq
Form: RNA
Matrix: in vitro
Tested at: 365 nM
Setting: natural RNA segment, single round, ends assumed
Reference: no-protein control
Direction: higher = stronger binding
All sequences stand within: GGGAGUUCUACAGUCCGACGAUC … UGGAAUUCUCGGGUGCCAA
Construct (chain): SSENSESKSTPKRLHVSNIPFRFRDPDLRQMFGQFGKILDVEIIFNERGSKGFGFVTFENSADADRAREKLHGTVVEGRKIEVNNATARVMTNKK
| Oligonucleotide | RBNS enrichment (R) |
| --- | --- |
| CAGUGUGCCCAGCAGUUUCAGACCUGACUCUGGAGGGAAUUUGGAGACAGUGUAGACAGCAGCUCUGCUCUGUAUUCUUUUUGACAAAACCAGAACAGUAGAAGUAGCCA | 0.281 |
| ACCUAGCUCCUGCCGCAUGUGGCUUCAGCCUGGCCUGGCCGCCAGGGGGAGCCACUGGUUUCGCUCCUCCUGAAGGGAGCUCUGGACCCUCAGGGCCCCCACAGGGGAAG | 0.306 |
| UACAACAGUCAAAAAGGAAACACACGAAAAUCACUUUUCUGCAACUGAUGAACUAUAUAGACUGGACUCUUAACCUCUUAGUGCCUCAGUUUUUCCUUCGGGGUAUACUA | 0.204 |
| GCCUCACAUUUGCAGGUAAUAUCAAGCAGCAAACUAAAUUCUGAGAAAUAAACGAGUCUAUUACUGUUUGGUCUCAGCUGAUUUGCCCUUUGAUGGCCCAGUGAAGAGAG | 0.356 |
| GAGGAGGGUCAUGGCUCCAAAUCCGCUUGCCAGUCCCGCCCUCUCUCAGGUUCAGUGGGACUGCCACUGUUAAGGAAGCCACGUUGCUGAUGGGAGGUCUCACCGGCCAC | 0.244 |
| AUAAUAGCUGGUAUGUAUCCAGCUCUUGCUAGGUGCUAGGUACUCAAAGUACAUGGCCUGAGUUCUCUUCUGCCUCCCACAGCAAAGUUGAGGCUGCACUGUAGAGACAC | 0.328 |
| UUUAUUAUGUAAAGGACUACCCAUGAUAACAUGCCAUAUUAUGUGUUUAUAUUCUAAUGUAACCAUAUACCAUAACUAAAUAAAAGUUUGGCUACUUGCACUAAUCUUCC | 0.715 |
| AGAGGCCCACAGUGGAGGCUUACCAAAGGUUGCAAUGAGGAAGAGGCCUCUCCCUCACUGUCAGCACCAGCUGGUAAAGGUGACUGUGCAGAUGUGCAUUUUCCUUUUGG | 0.428 |

Series 6
Target: CEP164, C-terminal peptide (human)
Technique: DHFR complementation, deep sequencing
Matrix: yeast
Setting: single substitutions, model-inferred values
Reference: wild type
Direction: higher = weaker binding
Starting sequence: PDZK1, PDZ domain 2 (human); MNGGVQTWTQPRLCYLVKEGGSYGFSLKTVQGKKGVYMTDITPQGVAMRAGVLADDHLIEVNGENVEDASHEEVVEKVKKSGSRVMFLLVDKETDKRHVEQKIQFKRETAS; partner HNRVKVYRF
| Substitution | binding free energy change [kcal/mol] |
| --- | --- |
| T39K | 1.65 |
| T109G | -0.312 |
| E72A | 0.587 |
| V90L | -0.103 |
| E60R | 0.412 |
| V46E | 0.548 |
| R107D | -0.0276 |
| G24E | 1.22 |
| H98R | -0.151 |
| G45E | 1.05 |
| L58H | 0.26 |
| V36W | 1.39 |
| Q101E | -0.119 |
| S81D | 1.16 |
| E73K | 0.218 |
| V66H | 0.547 |
| R107M | -0.0764 |
| D95L | -0.0438 |
| G82Y | 0.779 |
